Results collected from several papers.
Every numbered part comes from another study and shows a few of its results, in no order.

Series 1 — technique: universal PBM; form: double-stranded DNA, one strand shown; medium: in vitro; tested at: 600 nM; reading: higher = stronger binding
Target: Sal-like protein 4, full length isoform A (SALL4, Homo sapiens, UniProt Q9UJQ4, residues 1-1053)
Sequence of UniProt Q9UJQ4 (whole entry, looked up): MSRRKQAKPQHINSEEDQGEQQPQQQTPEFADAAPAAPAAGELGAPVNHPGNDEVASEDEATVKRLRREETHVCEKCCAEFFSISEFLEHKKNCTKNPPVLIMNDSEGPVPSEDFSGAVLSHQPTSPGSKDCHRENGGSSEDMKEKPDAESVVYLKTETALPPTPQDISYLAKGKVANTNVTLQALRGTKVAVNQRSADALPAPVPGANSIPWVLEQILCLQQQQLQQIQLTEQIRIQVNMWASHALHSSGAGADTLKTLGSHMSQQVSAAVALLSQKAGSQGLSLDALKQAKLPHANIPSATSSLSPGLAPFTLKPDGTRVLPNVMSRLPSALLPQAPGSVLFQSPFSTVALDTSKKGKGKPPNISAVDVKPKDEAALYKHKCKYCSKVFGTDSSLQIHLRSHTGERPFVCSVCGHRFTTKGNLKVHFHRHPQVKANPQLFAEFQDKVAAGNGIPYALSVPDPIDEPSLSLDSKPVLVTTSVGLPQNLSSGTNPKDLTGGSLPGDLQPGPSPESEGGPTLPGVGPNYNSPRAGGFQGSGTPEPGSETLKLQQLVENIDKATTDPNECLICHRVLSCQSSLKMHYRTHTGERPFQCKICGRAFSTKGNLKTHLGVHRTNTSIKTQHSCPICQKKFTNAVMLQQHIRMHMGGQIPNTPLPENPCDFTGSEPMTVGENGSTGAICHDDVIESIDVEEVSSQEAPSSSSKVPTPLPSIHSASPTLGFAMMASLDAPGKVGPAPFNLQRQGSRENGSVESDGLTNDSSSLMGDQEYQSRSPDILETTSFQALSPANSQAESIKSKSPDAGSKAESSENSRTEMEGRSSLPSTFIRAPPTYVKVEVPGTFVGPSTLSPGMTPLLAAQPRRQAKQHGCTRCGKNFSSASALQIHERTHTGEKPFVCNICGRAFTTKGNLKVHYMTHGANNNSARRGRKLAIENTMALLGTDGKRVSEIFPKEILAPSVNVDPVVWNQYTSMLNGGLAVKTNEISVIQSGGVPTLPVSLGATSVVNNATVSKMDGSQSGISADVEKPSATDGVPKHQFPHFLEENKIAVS
Notes: 8-mer, flanks averaged, mean of replicates
| Strand | E-score |
| --- | --- |
| GCGCTGGA | -0.343 |
| GAGCGCAC | -0.243 |
| AGCTTTCC | -0.164 |
| TATGTTGA | 0.32 |
| ACTCAACC | 0.0887 |
| CTCACTGC | -0.12 |
| CAGCCTGG | -0.266 |
| TGGACCCA | -0.0751 |
| AGCCGACA | -0.229 |
| GCGAGCGC | -0.293 |
| CCCCTGCC | -0.236 |
| AGTTGAGG | -0.0975 |
| CCAATGTA | 0.0117 |
| AGCCACTA | -0.00843 |
| CAGGTCAA | -0.141 |
| AGAGTAAC | -0.0732 |

Series 2 — technique: RNA Bind-n-Seq; form: RNA; medium: in vitro; tested at: 200 nM; notes: whole 134-nt RNA, ends assumed; with: 150 mM LiCl; baseline: input library; reading: higher = stronger binding; all molecules: 7-deaza-guanosine replaces G
Target: Ras GTPase-activating protein-binding protein 1, full length (G3BP1, Homo sapiens, UniProt Q13283)
Sequence of UniProt Q13283 (whole entry, looked up): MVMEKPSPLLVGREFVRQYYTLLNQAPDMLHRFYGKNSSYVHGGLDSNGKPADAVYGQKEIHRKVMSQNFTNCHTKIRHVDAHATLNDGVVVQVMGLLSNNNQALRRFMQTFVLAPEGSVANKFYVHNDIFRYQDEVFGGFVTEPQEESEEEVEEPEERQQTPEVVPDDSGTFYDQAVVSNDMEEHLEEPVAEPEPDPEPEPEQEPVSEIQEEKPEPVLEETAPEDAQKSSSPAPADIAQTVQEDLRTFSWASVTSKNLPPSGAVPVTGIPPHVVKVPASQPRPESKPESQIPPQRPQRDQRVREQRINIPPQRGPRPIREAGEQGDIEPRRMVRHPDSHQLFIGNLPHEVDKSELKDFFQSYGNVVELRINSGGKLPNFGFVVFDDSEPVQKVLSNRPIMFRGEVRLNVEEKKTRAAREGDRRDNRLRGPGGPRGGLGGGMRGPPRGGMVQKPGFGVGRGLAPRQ
Shared flanks, not repeated: GGGAGUUCUACAGUCCGACGAUC … UGGAAUUCUCGGGUGUCAAGG
| Strand | log2 enrichment |
| --- | --- |
| UGGCCCUGGUGGCAUGCGGGGCGGAAGAGGUGGCCUCAUGGAUCGUGGUGGUCCCGGUGGAAUGUUCAGAGGUGGCCGUGGUGGAGACAG | 0.856 |
| GUCCUGUGCUACACAUCGUAUGUACCGAAUCGGGAAAAAGGAAAAAGGGGAAAAAGGGAAAGUAUUAUGUUACGCCGUUCGGAUCUGCAC | -0.0704 |
| ACCAUGCAGGUGGGCAUCUUUGGGAAGUGGGGCAAGGGGGGGAUAGGGAGGGGGGUAACACUUUGGGAACAGGUGCUCCCAGGUCGUUUC | 0.0449 |
| UCAAGUCCUGUGCUACACAUCGUAUGUACCGAAUCGGAAAGGAAAGGGGAAAGGGAAAGUAUUAUGUUACGCCGUUCGGAUCUGCACUUC | -0.376 |
| AGUCCUGUGCUACACAUCGUAUGUACCGAAUCGGGAAAAAGGAAAAAGGGAAAAAGGAAAGUAUUAUGUUACGCCGUUCGGAUCUGCACU | -1.02 |
| GUCCUGUGCUACACAUCGUAUGUACCGAAUCGGAAAAAAAGGAAAAAAAGGAAAAAGGAAAGUAUUAUGUUACGCCGUUCGGAUCUGCAC | -1.06 |
| GCAGGAAGUAAAAACAAAUGGCAAUGCUUCGGAUAGUGGCAGGGGUGGGGGUUGCUAAGGAAAGGGUGGGAUGGGAGUGGGUAAAGAGUU | 0.263 |
| ACCAUGCAGGUGGGCAUCUUUGGGAAGUGGGGCAAGGGGGGGAUAGGGAGGGGGGUAACACUUUGGGAACAGGUGGUCCCACGUCGUUUC | 0.322 |

Series 3 — technique: RNA Bind-n-Seq; form: RNA; medium: in vitro; tested at: 365 nM; baseline: no-protein control; reading: higher = stronger binding
Target: RNA binding protein fox-1 homolog 2, RRM domain, GST-SBP tag (RBFOX2, Homo sapiens, UniProt O43251-10, residues 100-194)
Notes: natural RNA segment, single round, ends assumed
Shared flanks, not repeated: GGGAGUUCUACAGUCCGACGAUC … UGGAAUUCUCGGGUGCCAA
Residues (chain): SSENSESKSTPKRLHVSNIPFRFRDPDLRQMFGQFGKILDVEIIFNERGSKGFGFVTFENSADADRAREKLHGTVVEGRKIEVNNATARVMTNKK
| Strand | RBNS enrichment (R) |
| --- | --- |
| UCUUUGUUUUUUUUAAAAAAAACAAAAACAGAGGCCAGAACUAUUGUUUGAAAUUAGUAACAAUGCUGCAUCUAGAUUGGAGUGCUGCCCAGCCAUAGAAGCAGAGCUGA | 0.391 |
| GAUUUUUUUUAAACUAAAGCUAUAUAAAGCUUGUGGAUUAAACAGAAUAAAUUUCUAAAUUUAAAAAUUUUGCCACUCUUACUUAGUAGUGCUUAUGUAAACCUUUUGGU | 0.826 |
| AGGAAAAAACCAACAACUCUAUUCAUUCCCAAACAAAAUCUCUUCCCCCUUAGUCAAUAGCUUGCGAAAGACAUCUUAACUCACCCUUGCAGAUAAGUCUUGGAGUGAAA | 0.97 |
| GGACUAUGCCCUGACCCCUCCUUUCUGAAAAUCAGUGCCCUCCCUGUUGCUCUAGGAGGCUCCUGCUGGCUUGGUAGAAGACAGAAUUCGAUCUGCCUGUCCCUUUUUCC | 0.448 |
| CCUAUCGAGAAGGGGCCGAAGGCGAAUGAACACAAAGCCUCGAAGCCAGUGGUUCCGGCUGAGCUCUCCUGGCUGGUCCCCCAGGACCACCAGCACUGCCGUGGGUCUCC | 0.216 |
| UUAGAUACAGAAUGAGUUAGAUAAACUUGGCUUGUCUAGAGACCCAUGUCAUCUUAACCUAAAGGGAAAUCUUAUUGCGUUAUCAUAAAAUUGAUGAUAUCUUAGGGUCA | 0.536 |
| GUGAGGAUGCAUGCGUGGGGCUGCUGGUGUUUAGAGUGGGGGCUACCCAAUAAAUCACUGAUACUCACGUUCCACCUCUGUCUCUCCUCAGAGUGCCUUGAGACACUCUG | 12.4 |
| UUGUGUGUGCAAGAAAACUAGGCAAUGUACUCUUCCGAUGUUUGUGUCACACAACACUGAUGUGACUUUUAUAUGCUUUUUCUCAGAUCUGGUUUCUAAGAGUUUUGGGG | 1.83 |

Series 4 — technique: RNA Bind-n-Seq; form: RNA; medium: in vitro; tested at: 100 nM; baseline: input RNA pool; reading: higher = stronger binding
Target: RING finger protein unkempt homolog, zinc fingers 1-6, SBP tag (UNK, Homo sapiens, UniProt Q9C0B0, residues 30-357)
Sequence of UniProt Q9C0B0 (30-357, looked up): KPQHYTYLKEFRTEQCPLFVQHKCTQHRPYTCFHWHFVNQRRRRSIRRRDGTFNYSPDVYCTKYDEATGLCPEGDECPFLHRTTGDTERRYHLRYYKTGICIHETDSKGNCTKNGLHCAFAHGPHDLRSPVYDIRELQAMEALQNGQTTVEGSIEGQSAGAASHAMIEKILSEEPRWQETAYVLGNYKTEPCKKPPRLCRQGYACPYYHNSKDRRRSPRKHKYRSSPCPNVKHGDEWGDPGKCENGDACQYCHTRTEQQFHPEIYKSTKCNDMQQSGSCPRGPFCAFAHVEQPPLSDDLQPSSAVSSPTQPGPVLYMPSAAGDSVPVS
Notes: RNA with constant flanks, vertebrate orthologous sites, ends assumed
Shared flanks, not repeated: GGGAGUUCUACAGUCCGACGAUC … CAACAGAGGAUUGAGCAUCA
| Strand | bound/input enrichment [ratio] |
| --- | --- |
| CCCUCUGAACCCCAUAUCUUCUGUUUCAUAAUGCAGAAGUAUUCUUUUCAAUUAUAUUGUUAGUGGACUUGUUUUAAUUUUAGAGAAACUUUGAGUACAGAUACUGUGAGCUUACAUGGA | 1.85 |
| CAGCUGAUUCACUCAUUGGGAGAGCUGCACAUAUAGCUGUUCUUGAUUCAGAAAUAUUUUUAGAGAAAUUCUUUCUGGUUGCUGCCCUUAAAUAUUUCCAAUAGGAUAAAAACACUGUUA | 0.808 |
| ACCAGUUUGUAUGUACAUUAUUCACAUUCCUCUCUGUUGUGUUUAGAAAAAAAAGACAUUUUAGCCUUUUUUAAGGUUACUGAUUUAAUUUAAUGUUACUUGGUUGCAUGAAGUUGCCCU | 0.592 |
| CCCUCUGAACCCCAUAUCUUCUGUCUCAUAGUGUAGAAGUAGUCUUUUCAAUUAUAUUAUUAGUGGACUUGUUUUAAUUUUAGGGAAACUUUCAGUACAGAUACUGUGAGCUUACAUGGA | 4.1 |
| CUCUCUUAGUGAUAGUAUUCCAUCUGUAGCAGAUUCUCACUCGAGUCAUUUUUCUGAGUUUAGCUGCUCAGAUAUGGAAAGUAUGAAAACUUCCUGCAGCCAUGGUUCCAGCGACUAUCA | 0.464 |
| CCGAAAGGCCAAAUCCCCUCCUCCCUUCUACUGCUUCUACCAACUGGAAGCACAGAAAACUAGAAUUUCAUUUAUUUUGUUUUUAAAAAUAUACGUUGAUUUCUUGUAACAUCCAAUAGG | 0.469 |
| GUUAGGUCAUGACCCUUAUAGGUUAGGUCAUGAUGCCUACAGGUUAGGGCAGGACCCGUAUAGAUUAGGCCAUGAUCCCUACAGACUAACUCCUGAUCCCUAUAGGAUGUCACCUAGACC | 0.584 |
| UAAUUGCCUAUAAUAAUGGAAACCAUUUUUAAAAUUUUUCAUUUCCCCCUUAGGCAUAAUUAGUCUUUUUUUCCCCAGGCAGAUCAUUCUGAGUGUGCGAGUGUGUGUGCACGUUACAGA | 0.719 |
